{"data": "Experimental data of several laboratories", "note": "Lines come from different studies, so protocols differ. Numbers after ± are the reported error."}
{"Compound": "CC[C@H](C)C(=O)N1CCC(NC(=O)Nc2ccc(OC(F)(F)F)c(F)c2)CC1", "test system": "human, plasma", "conditions": "oral, 8 mg, single dose, healthy volunteers", "quantity": "Cmax", "result": "82.7 ng/mL"}
{"Compound": "CC(C)C[C@H](NC(=O)[C@H](CCC1CCCCC1)NC(=O)[C@@H]1CCCN1C(=O)c1ccc(F)cc1)C(=O)NC(C)(C)C(=O)N[C@@H](CC(C)C)C(=O)N[C@@H](CC(C)C)C(=O)NC(C)(C)C(=O)NC(C)(C)C(=O)NCCC(=O)NCCN(C)CC(F)F", "test": "potentiometric titration", "test system": "methanol-water 1:4, NaCl 150 mM", "conditions": "terminal amine", "quantity": "pKa", "result": "< 3.5"}
{"Compound": "COC(=O)C[C@](O)(CCCC(C)(C)OC(C)=O)C(=O)O[C@@H]1C(OC)=C[C@]23CCCN2CCc2cc4c(cc2[C@H]13)OCO4", "test system": "CD1 mice, plasma", "conditions": "subcutaneous, 1 mg/kg, 2 h", "quantity": "concentration", "result": "155 ng/mL"}
{"Compound": "CCCCCCCC(=O)OC[C@H](NC(=O)[C@H](CO)NC(=O)CN)C(=O)N[C@@H](Cc1ccccc1)C(=O)N[C@@H](CC(C)C)C(=O)N[C@@H](CO)C(=O)N1CCC[C@H]1C(=O)N[C@@H](CCC(=O)O)C(=O)N[C@@H](Cc1cnc[nH]1)C(=O)N[C@@H](CCC(N)=O)C(=O)N[C@@H](CCCNC(=N)N)C(=O)N[C@H](C(=O)N[C@@H](CCC(N)=O)C(=O)N[C@@H](CCC(N)=O)C(=O)N[C@@H](CCCNC(=N)N)C(=O)N[C@@H](CCCCN)C(=O)N[C@@H](CCC(=O)O)C(=O)N[C@@H](CO)C(=O)N[C@@H](CCCCN)C(=O)N[C@@H](CCCCN)C(=O)N1CCC[C@H]1C(=O)N1CCC[C@H]1C(=O)N[C@@H](C)C(=O)N[C@@H](CCCCN)C(=O)N[C@@H](CC(C)C)C(=O)N[C@@H](CCC(N)=O)C(=O)N1CCC[C@H]1C(=O)N[C@@H](CCCNC(=N)N)C(=O)O)C(C)C", "test system": "human, both sexes, plasma", "conditions": "intravenous infusion, 5 µg/kg/h, 65 min infusion", "quantity": "clearance", "result": "5.47 ± 0.69 mL/min/kg"}
{"Compound": "COc1ccc(C)cc1NC(=O)OC1CC2CCCC(C1)N2Cc1ccc(CC[18F])cc1 (stereo not drawn)", "test system": "BALB/c mice, EMT6 tumour", "conditions": "2 h", "scale": "reference: tumour over lung", "quantity": "tumour to tissue ratio", "result": 0.82}
{"Compound": "CSCC[C@H](NC(=O)CNC(=O)[C@H](CC(=O)O)NC(=O)[C@@H](NC(=O)[C@@H](NC(=O)[C@@H](NC(=O)CNC(=O)[C@H](CCC(N)=O)NC(=O)[C@H](CCSC)NC(=O)[C@H](CC(=O)O)NC(=O)[C@H](C)NC(=O)[C@H](C)NC(=O)[C@@H](NC(=O)[C@H](CO)NC(=O)[C@@H](N)CC(C)C)[C@@H](C)O)C(C)C)C(C)C)[C@@H](C)O)C(=O)N[C@@H](C)C(=O)N[C@@H](CO)C(=O)NCC(=O)N[C@@H](CC(C)C)C(=O)N[C@@H](CC(=O)O)C(=O)N[C@@H](CCCCN)C(=O)N[C@@H](CC(=O)O)C(=O)N[C@@H](Cc1ccc(O)cc1)C(=O)N[C@@H](CC(C)C)C(=O)N[C@@H](CCCCN)C(=O)N1CCC[C@H]1C(=O)N[C@@H](CC(=O)O)C(=O)N[C@@H](CC(=O)O)C(=O)O", "test system": "human, serum", "conditions": "intravenous, 0.83 mg/kg, patients, infusion", "quantity": "half-life", "result": "8.64 min"}
{"Compound": "COc1cc2ccnc(Cc3ccc(O[11CH3])c(OC)c3)c2cc1OC", "test system": "Sprague-Dawley rat", "conditions": "intravenous, 30 min", "scale": "reference: 5 min value", "quantity": "liver uptake", "result": "48%"}
{"Compound": "CCc1c2c(nc3ccc(OC4OC(C(=O)O)C(O)C(O)C4O)cc13)-c1cc3c(c(=O)n1C2)COC(=O)C3(O)CC (stereo not drawn)", "test system": "human patients, plasma", "conditions": "intravenous, 313 mg/m2 of parent drug", "quantity": "AUC(0-inf)", "result": "4540 ng·h/mL"}
{"Compound": "CN[C@](C)(C[18F])C(=O)O", "test system": "SCID mouse U87 xenograft, spleen", "conditions": "120 min, post injection", "quantity": "tissue uptake", "result": "6 ± 2.4 %ID/g"}
{"note": "For quick reference, copied from above:"}
{"Compound": "CC[C@H](C)C(=O)N1CCC(NC(=O)Nc2ccc(OC(F)(F)F)c(F)c2)CC1", "test system": "human, plasma", "conditions": "oral, 8 mg, single dose, healthy volunteers", "quantity": "Cmax", "result": "82.7 ng/mL"}
